Assay results from different studies.
Each numbered part is a random draw from the data of one study; scales do not carry over between parts. Substitutions count along the parent as printed.

Sample 1
Target: Interferon regulatory factor 7, full length, phosphomimetic (IRF7, Homo sapiens, UniProt Q92985, residues 1-503, S101K/S471D/S472D/S475D/S476D/S477D/S483D/S484D/S487D)
Method: protein-binding microarray
Molecule type: double-stranded DNA, one strand shown
Matrix: in vitro
Tested at: 250 nM
Notes: 60-bp whole probe
With: salmon DNA 0.4 mg/ml
Baseline: random background probes
Direction: higher = stronger binding
Shared flanks, not repeated: GCCTAGCAC … GTCTTGATTCGCTTGACGCTGCTG
Residues (chain): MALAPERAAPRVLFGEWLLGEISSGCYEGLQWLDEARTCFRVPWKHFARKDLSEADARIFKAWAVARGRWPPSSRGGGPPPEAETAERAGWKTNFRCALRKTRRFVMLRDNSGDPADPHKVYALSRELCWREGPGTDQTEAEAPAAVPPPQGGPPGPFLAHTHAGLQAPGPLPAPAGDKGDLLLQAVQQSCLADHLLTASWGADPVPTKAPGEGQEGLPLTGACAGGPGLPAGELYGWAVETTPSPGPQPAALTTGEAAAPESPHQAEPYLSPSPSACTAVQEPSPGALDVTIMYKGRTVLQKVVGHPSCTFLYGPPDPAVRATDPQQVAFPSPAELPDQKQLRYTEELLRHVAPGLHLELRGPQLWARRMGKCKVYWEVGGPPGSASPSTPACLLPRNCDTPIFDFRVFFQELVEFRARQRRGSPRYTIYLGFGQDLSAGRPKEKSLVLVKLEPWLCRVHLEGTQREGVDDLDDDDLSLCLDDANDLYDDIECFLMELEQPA
For `ATGTCTTCCCCTCTCATTCCGTGCTAG`, the log fluorescence was 1.37 z-score.
`TTAGGATTCCTTCTCCTTTAGTGCTAG` gave a log fluorescence of 0.572 z-score.
With `TTAGGTTTCGACACTGAGTTAGTGCTA` the log fluorescence was 3.67 z-score.
`GACGGTTGCGACTTTCGGGACGTGCTA` has a log fluorescence of 0.309 z-score.
`TCACCACTCCAGTTCTGACTGTGCTAG` has a log fluorescence of -0.271 z-score.
The log fluorescence of `TTAGCTTTCCTACTGCTTTAGTGCTAG` is reported as 0.79 z-score.
For `TCAATTTTCAATTCCTGACTGTGCTAG`, the log fluorescence was 0.49 z-score.
The log fluorescence of `GAGGGTTTCGGGTTTCGGGACGTGCTA` is reported as 9.93 z-score.
The log fluorescence of `TTCTCTTTCATTGCTGCCCTGTGCTAG` is reported as 1.03 z-score.
The log fluorescence of `GACGATTTCAGTTTAGAGACGTGCTAG` is reported as 0.893 z-score.
The log fluorescence of `TTAGGTATCCTTTACCTTTAGTGCTAG` is reported as 0.382 z-score.
With `TTAGTTATCAGTATCGATTAGTGCTAG` the log fluorescence was 1.4 z-score.
For `GACGATTTCAGCCTCGAGACGTGCTAG`, the log fluorescence was 0.364 z-score.
With `TTGGGTTTCCTTTTCCTTTAGTGCTAG` the log fluorescence was 5.55 z-score.
For `TGCCCTCTAACTTCCCAATGGTGCTAG`, the log fluorescence was 0.514 z-score.
`TTAGGTTTCCTTACCCTTTAGTGCTAG` gave a log fluorescence of 1.09 z-score.
The log fluorescence of `TTAGATCTCAATATCGATTAGTGCTAG` is reported as 0.347 z-score.

Sample 2
Target: RNA binding protein fox-1 homolog 2, RRM domain, GST-SBP tag (RBFOX2, Homo sapiens, UniProt O43251-10, residues 100-194)
Method: RNA Bind-n-Seq
Molecule type: RNA
Matrix: in vitro
Tested at: 365 nM
Notes: natural RNA segment, single round, ends assumed
Baseline: no-protein control
Direction: higher = stronger binding
Shared flanks, not repeated: GGGAGUUCUACAGUCCGACGAUC … UGGAAUUCUCGGGUGCCAA
Target sequence (chain): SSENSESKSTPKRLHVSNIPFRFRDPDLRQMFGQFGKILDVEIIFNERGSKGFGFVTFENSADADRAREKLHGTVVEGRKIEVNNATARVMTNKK
For `GAGGAUGACUUACGUGCUCUGAUUUAUAUCAUAAAGCAAGAAGACUGAGCAUUCUUACACUUGAUGGAAAAAUUAAAGCCUAGAAGGACCAAAGAUGUCCUUAUUGACAA`, “RBNS enrichment (R)” read 0.595.
Under “RBNS enrichment (R)”, `GUUUUGUUAAUUACACCAUAAUGCUAAUUUAAAGAGACUCCAAAUCUCAAUGAAGCCAGCUCACAGUGCUGUGUGCCCCGGUCACCUAGCAAGCUGCCGAACCAAAAGAA` is recorded as 0.248.
For `ACGUUAGCUGUCCCAGGCCACAAGCCAUACCCAACCUUGACCUUCCUGGGUCACAAUGAUCAGUUGGUUUUUCCAUUAGGGAGGGAAGGUCUGGGCCUGCUUAGCAAGAA`, “RBNS enrichment (R)” read 0.277.
For `CCACAGGAGCUGGAGUGAAGGUCUCUCCCCUUCCGCCGAGCCCGUCUGCCAGAGAGUGUCAGCUCUGUCAUCCACCAUAUUUCGACAGCCGCUCCUUGCUGCUACACGGG`, “RBNS enrichment (R)” read 0.26.
`GUCUGCUUUUAAUGCAGCUGUGGACUGAGGUGUGGCUCAGAGGACACUUGUUCACUAAGUGUAAGACCCUGGUAUCCUUUCCUAGAACUGUCAAAAAUAAAUGGAUGGAU` — result for “RBNS enrichment (R)”: 0.517.
Under “RBNS enrichment (R)”, `CAUCUGCCCUCUGAGUUCUUUCUGUGUGAUCUAUUUUUUAAGAAGAGUUUGUAUUAUUUUUUCAUAACGGCUGCAGCAGCAGCUGCUGGGGGUUUAGGGGGAUGGUUUUG` is recorded as 0.7.
For `GGCAUCUUUGGAUUCAGGAGCUAACCAGGCUCUUCCUCGGGGGCGGGGGAGAUUCUGACUCUUAAUCUGUAUUGUGAGAAAAUCCCAGCAAGUUCCAUGAUAUUAAAUCC`, “RBNS enrichment (R)” read 0.601.
For `AACUAUGUUUUUCAGCCCUUCAGAAGGGUUCUACUACUGUCCUAUACAAUCAAGUAACUGAAAUUCUUGGGAAGACACUUUGCUCCUCAUCUUUCUCCCCGAAACAAUGU`, “RBNS enrichment (R)” read 0.354.

Sample 3
Target: Sal-like protein 4, full length isoform B (SALL4, Homo sapiens, UniProt Q9UJQ4-2, residues 1-616)
Method: universal PBM
Molecule type: double-stranded DNA, one strand shown
Matrix: in vitro
Tested at: not given
Notes: 8-mer, flanks averaged, mean of replicates
Direction: higher = stronger binding
`CCTTGACG` gave an E-score of -0.151.
`GGGTGTAC` has an E-score of -0.0219.
With `ATTAGTCC` the E-score was 0.197.
The E-score of `ACCAGATG` is reported as -0.0391.
For `AGCCTACC`, the E-score was -0.166.
`ATGATGAG` has an E-score of 0.175.
With `GTGGTCAA` the E-score was -0.0441.
For `GAAAGACC`, the E-score was -0.209.
`CGTGAATA` has an E-score of 0.177.
`ACATTGCT` has an E-score of 0.178.
`ACCAATAC` gave an E-score of 0.151.
For `CTAGGTTC`, the E-score was -0.228.
The E-score of `ACGGGACA` is reported as -0.155.
With `CTAAGCTA` the E-score was 0.0791.
`CACAACGG` gave an E-score of -0.186.
`ATAAAGAA` gave an E-score of 0.293.

Sample 4
Target: ABI1, truncated, D143A, DHFR fusion (Arabidopsis thaliana)
Method: DHFR PCA, deep sequencing
Matrix: yeast
Notes: methotrexate growth selection, single substitutions
With: (+)-ABA 200 µM
Baseline: wild-type fitted maximum
Direction: higher = stronger binding
Parent: PYL1, truncated, DHFR fusion (Arabidopsis thaliana); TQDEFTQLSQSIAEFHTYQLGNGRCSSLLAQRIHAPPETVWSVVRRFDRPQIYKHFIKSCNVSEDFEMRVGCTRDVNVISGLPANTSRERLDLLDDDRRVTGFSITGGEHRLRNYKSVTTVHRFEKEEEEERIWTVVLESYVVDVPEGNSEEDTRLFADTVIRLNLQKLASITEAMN; partner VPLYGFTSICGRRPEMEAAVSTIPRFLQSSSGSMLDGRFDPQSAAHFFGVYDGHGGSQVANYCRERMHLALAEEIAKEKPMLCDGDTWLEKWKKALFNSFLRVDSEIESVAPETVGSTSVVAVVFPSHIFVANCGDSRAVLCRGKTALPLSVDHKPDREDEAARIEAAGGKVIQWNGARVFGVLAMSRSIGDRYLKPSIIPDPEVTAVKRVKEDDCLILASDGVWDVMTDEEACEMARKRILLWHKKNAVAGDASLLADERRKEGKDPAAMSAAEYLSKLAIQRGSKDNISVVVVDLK
For `V145P`, “relative binding score” read 60%.
`I172G`: “relative binding score” 39%.
`V137F`: “relative binding score” -8.45%.
`F103M`: “relative binding score” 76.1%.
Under “relative binding score”, `V43G` is recorded as 6.62%.
For `I12T`, “relative binding score” read 73%.
`C72W` — result for “relative binding score”: 85%.
For `S59D`, “relative binding score” read 101%.
`R113G`: “relative binding score” 86.1%.
`N114A`: “relative binding score” 78.8%.
For `R113T`, “relative binding score” read 105%.
For `R69M`, “relative binding score” read 99.3%.
For `T173V`, “relative binding score” read 99.3%.
For `E130L`, “relative binding score” read 103%.
`I162R` — result for “relative binding score”: -2.13%.
`E14G` — result for “relative binding score”: 71.1%.
Under “relative binding score”, `T17W` is recorded as 71.8%.
`F66S`: “relative binding score” 95.7%.
Under “relative binding score”, `D159M` is recorded as 27.7%.
For `R113V`, “relative binding score” read 98.8%.
Under “relative binding score”, `W41G` is recorded as -12.4%.
`Y115I` — result for “relative binding score”: -1.12%.
`V142I` — result for “relative binding score”: 101%.
`V121P`: “relative binding score” 1.41%.
`E152K` — result for “relative binding score”: 92.8%.

Sample 5
Organism: Saccharomyces cerevisiae
Read-out: binding
Method: competitive growth deep sequencing
Molecule type: peptide
Strain: cyclin E1-Cln2 fusion strain
Tested at: concentration not given
Notes: peptide tiling library
Direction: direction not given
`SSEVARHLLFQSHM` — result for “growth enrichment score”: -0.194.
For `SCCKRKLVVGNGPEGP`, “growth enrichment score” read -0.615.
For `ESSQLTVQAEFDMSAI`, “growth enrichment score” read -0.00248.
`VKRLNFRSEEME` — result for “growth enrichment score”: 0.0551.
For `IPDRSTKPVVFSPT`, “growth enrichment score” read 0.392.
`AIRKMREDRWAVIAKM`: “growth enrichment score” 0.0796.
`DTERAHSTLDEDLERW` — result for “growth enrichment score”: -1.64.
For `DSDSDSEGGAAGGEAD`, “growth enrichment score” read 1.05.
Under “growth enrichment score”, `NARRSLNFGGSTGT` is recorded as 0.22.
`LRRQLSFSED`: “growth enrichment score” 0.289.
`ALTMEALEDPSPELME` — result for “growth enrichment score”: 1.51.
`PAKRRLELGE`: “growth enrichment score” 0.398.
`IVLICAKRSLCAAFSV` — result for “growth enrichment score”: -0.0177.

A few entries again (sample 5):
For `ESSQLTVQAEFDMSAI`, “growth enrichment score” read -0.00248.
`VKRLNFRSEEME` — result for “growth enrichment score”: 0.0551.
For `IPDRSTKPVVFSPT`, “growth enrichment score” read 0.392.
`AIRKMREDRWAVIAKM`: “growth enrichment score” 0.0796.
`DTERAHSTLDEDLERW` — result for “growth enrichment score”: -1.64.
For `DSDSDSEGGAAGGEAD`, “growth enrichment score” read 1.05.
